{"data": "Assay results from different studies", "note": "Numbered parts are unrelated; each lists some results of a single study."}
{"data": "Set 1", "target": "Interferon regulatory factor 5, full length, phosphomimetic (IRF5, Homo sapiens, UniProt Q13568-2, residues 1-514, S451D/S453D/S456D/S462D)", "technique": "protein-binding microarray", "form": "double-stranded DNA, one strand shown", "matrix": "in vitro", "concentration": "940 nM top", "setting": "60-bp whole probe", "together with": "salmon DNA 0.4 mg/ml", "baseline": "random background probes", "direction": "higher = stronger binding", "shared flanks, not repeated": "GCCTAGCAC … GTCTTGATTCGCTTGACGCTGCTG"}
{"Sequence": "TCAGAAATCTCTTTCCTACTGTGCTAG", "fitted relative affinity [z-score]": 0.453}
{"Sequence": "TTAGGTTTCGGGTATCGGTTGGTGCTA", "fitted relative affinity [z-score]": 11.8}
{"Sequence": "GACGCACTGCTTATCCTGACGTGCTAG", "fitted relative affinity [z-score]": -0.192}
{"Sequence": "TGCTATACCACTCTTGCTTTGTGCTAG", "fitted relative affinity [z-score]": 0.533}
{"Sequence": "GACCATTTCGGGTTTCGAGACGTGCTA", "fitted relative affinity [z-score]": 2.16}
{"Sequence": "TCAACTCCCCAACTCGCACTGTGCTAG", "fitted relative affinity [z-score]": 0.223}
{"Sequence": "GAAGGACTGCTTATCCTGACGTGCTAG", "fitted relative affinity [z-score]": -0.197}
{"Sequence": "TACGGTATCGACTATCGGGACGTGCTA", "fitted relative affinity [z-score]": 4.67}
{"data": "Set 2", "target": "Sal-like protein 4, full length isoform B (SALL4, Homo sapiens, UniProt Q9UJQ4-2, residues 1-616)", "technique": "universal PBM", "form": "double-stranded DNA, one strand shown", "matrix": "in vitro", "concentration": "not given", "setting": "8-mer, flanks averaged, mean of replicates", "direction": "higher = stronger binding", "Target sequence (chain)": "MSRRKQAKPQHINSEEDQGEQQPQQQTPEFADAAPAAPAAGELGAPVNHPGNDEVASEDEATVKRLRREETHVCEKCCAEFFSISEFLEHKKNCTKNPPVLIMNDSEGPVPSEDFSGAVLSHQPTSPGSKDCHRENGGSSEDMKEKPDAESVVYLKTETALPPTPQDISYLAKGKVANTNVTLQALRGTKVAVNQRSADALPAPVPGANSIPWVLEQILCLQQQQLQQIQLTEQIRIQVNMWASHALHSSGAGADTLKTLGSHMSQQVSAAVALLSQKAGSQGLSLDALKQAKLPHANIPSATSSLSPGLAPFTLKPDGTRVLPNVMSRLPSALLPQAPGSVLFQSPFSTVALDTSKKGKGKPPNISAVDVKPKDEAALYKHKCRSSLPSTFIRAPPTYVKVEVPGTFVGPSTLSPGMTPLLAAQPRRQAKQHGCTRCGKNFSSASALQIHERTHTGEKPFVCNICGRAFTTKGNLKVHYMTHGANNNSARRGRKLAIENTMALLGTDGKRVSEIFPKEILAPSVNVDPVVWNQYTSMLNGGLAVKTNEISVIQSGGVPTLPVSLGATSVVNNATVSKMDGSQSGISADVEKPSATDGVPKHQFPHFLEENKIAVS"}
{"Sequence": "CGAACTCG", "E-score": -0.266}
{"Sequence": "AAATTACC", "E-score": 0.214}
{"Sequence": "GCCGTCGA", "E-score": -0.285}
{"Sequence": "CGCATACG", "E-score": 0.0235}
{"Sequence": "ATCAATTG", "E-score": 0.249}
{"Sequence": "TGAAGACA", "E-score": 0.122}
{"Sequence": "AGGAGACT", "E-score": -0.0444}
{"Sequence": "AGATAATA", "E-score": 0.321}
{"data": "Set 3", "target": "RING finger protein unkempt homolog, zinc fingers 1-6, GST-SBP tag (UNK, Homo sapiens, UniProt Q9C0B0, residues 30-357)", "technique": "RNA Bind-n-Seq", "form": "RNA", "matrix": "in vitro", "concentration": "not given", "setting": "RNA with constant flanks, human-mouse chimeric sites, ends assumed", "baseline": "input RNA pool", "direction": "higher = stronger binding", "shared flanks, not repeated": "GGGAGUUCUACAGUCCGACGAUC … CAACAGAGGAUUGAGCAUCA", "Target sequence (chain)": "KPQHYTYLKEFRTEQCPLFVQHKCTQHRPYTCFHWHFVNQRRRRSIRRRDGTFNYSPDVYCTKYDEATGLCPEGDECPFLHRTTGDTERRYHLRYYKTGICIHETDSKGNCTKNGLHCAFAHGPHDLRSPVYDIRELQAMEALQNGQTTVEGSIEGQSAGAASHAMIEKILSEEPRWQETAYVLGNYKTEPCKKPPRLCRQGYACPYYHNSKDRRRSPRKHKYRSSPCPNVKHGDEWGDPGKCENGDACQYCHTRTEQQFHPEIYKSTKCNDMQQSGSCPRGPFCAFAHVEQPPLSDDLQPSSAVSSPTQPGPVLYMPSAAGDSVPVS"}
{"Sequence": "CGAGACAAGACAUCCAGGAACAUGCGAGGGUCACGGAUGAAUGGGUUGCCUAGCCCCACUCACAGCGCCCACUGUAGCUUCUACCGAACCAGAACCUUGCAGGCACUGAGUAAUGAGAAG", "bound/input enrichment [ratio]": 0.0723}
{"Sequence": "GUCAACAGCUGCCUCAACCCCAUCCUCUACGCCUUCCUGGAUGAGAACUUCAAGGCCUGCUUUAGAAAGUUCUGCUGUGCAUCUGCCCUGCGCCGGGAGAUGCAGGUGUCUGACCGCGUG", "bound/input enrichment [ratio]": 0.273}
{"Sequence": "UACUCAACUUUCUUGCCACAUUUUGAAUUCCAAGAUGUUAUUCCUCCAGAUGACUUCCUAACGAGUGAUGAAGAGCAAGAUUUGGUUUUAUUUGGAACUAUGAGAGGUCAUGUGGUUGGA", "bound/input enrichment [ratio]": 0.15}
{"Sequence": "AGGAGGAGGUUAAAGGGUGAGAGUGGGAUGGAGGAUUGUGUCAUGGCUCUGGAGACAUUGUUUAGUGUCCUGCUUUCUCUGUGCAGACUGAUGGCCCCUUACACGCCCUUUCUGACUGAG", "bound/input enrichment [ratio]": 0.162}
{"Sequence": "CACGUGUCUGCAGUACUUGAUGUGGACUACUCUCCCACUGGGAAGGAAUUUGUGUCUGCCAGCUUUGAUAAGUCUAUUAGAAUCUUUCCUGUGGACAAAAGUCGAAGCAGGGAGGUAUAU", "bound/input enrichment [ratio]": 0.34}
{"Sequence": "CCAAUCGUGGAGCAGUACUUGAAGACAAAGAAAAAUUCUAAUAAUUUAAUCAUCAAGUACAUUAGCUGCCGCCUGCUGACACUCAUCGUUAUACUGUUAGCGUGUAUCUACCUGGGCUAU", "bound/input enrichment [ratio]": 0.288}
{"Sequence": "UUGAAAACAAACUGAUUUAAGUUUGAGUAUCACAAUGUUAGCUUUCUAAUUCCAUAAAAGUACUUGGUUUUUACAGUUUAUAAUCUGACAUCACCCCAGCGCCAUUUAGAUCAGCUUACU", "bound/input enrichment [ratio]": 0.729}
{"Sequence": "UGUGAACUGUCUCUUGAUUGGGGUCUACAAGAUGACUUUUCCUGGCACAUAUUUCAAAGCAAAGACUUUGUUGCCUGCUGCUUAUUGUCUAAUUUACAGGGAUAUUUAAUUUUGUCAGGU", "bound/input enrichment [ratio]": 0.334}
{"data": "Single results of other studies"}
{"Sequence": "PPPPLQHPI", "target": "HLA class I histocompatibility antigen, A alpha chain, allele A*80:01 (Homo sapiens, UniProt P04439)", "assay": "peptide-MHC binding", "system": "peptide", "conditions": "concentration not given", "quantity": "binding", "value": "inactive"}
{"note": "For quick reference, copied from above (set 1):"}
{"Sequence": "GACCATTTCGGGTTTCGAGACGTGCTA", "fitted relative affinity [z-score]": 2.16}
{"Sequence": "TTAGGTTTCGGGTATCGGTTGGTGCTA", "fitted relative affinity [z-score]": 11.8}
{"Sequence": "TCAACTCCCCAACTCGCACTGTGCTAG", "fitted relative affinity [z-score]": 0.223}
{"Sequence": "GAAGGACTGCTTATCCTGACGTGCTAG", "fitted relative affinity [z-score]": -0.197}
